Published values from different studies.
Protocols differ between the studies behind these lines.
Target: NT-3 growth factor receptor (NTRK3, Homo sapiens, UniProt Q16288)

`Cc1cc(NC(=O)Nc2cc(C(F)(F)F)ccc2F)ccc1C(=O)Nc1ccc2[nH]ncc2c1` gave an inhibition of 20.6% (enzyme activity, inhibitor, FRET; 1 µM).
The inhibition of `C=CC(=O)N1Cc2nc(-c3cc(-c4cc(Cl)cnc4Cl)c(F)cc3F)n(-c3ccncn3)c2C1` is reported as 5.4% (cell-free assay; 1 µM).
`Cc1ccc(-c2c(/C=C(\C#N)C(=O)NC(C)C)n(CCCO)c3ncnc(N)c23)cc1` gave a remaining binding of 98% (cell-free assay, competition with immobilised ligand; 1 µM).
`O=C(CN1CCN(C(=O)c2ccc(C(F)(F)F)cc2)CC1)Nc1cccc(C(=O)Nc2ccc3[nH]ncc3c2)c1` has an inhibition of 15% (enzyme activity, inhibitor, FRET; 1 µM).
`CN1CC[C@@H](COc2cnc(C#N)cc2-c2ccn3nc(NC(=O)C4CC4)cc3c2)C1` gave an inhibition of 11% (enzyme activity, inhibitor; 1 µM).
`NC(=O)[C@@H](O)C[C@H]1CCc2sc3ncnc(O[C@H]4CC[C@H](N5CCOCC5)CC4)c3c21` gave an inhibition of 67% (enzyme activity, inhibitor; 10 µM).
`CCn1cc(C(=O)O)c(=O)c2c(N)c(F)c(NC3CCCCC3)cc21` has an inhibition of 9.9% (kinase activity; 0.1 µM, added: ATP at Km).
With `C=CC(=O)Nc1cccc(-c2cnc3[nH]cc(C(=O)NC(C)(C)C)c3n2)c1` the inhibition was -9% (enzyme activity, inhibitor; 0.1 µM).
The remaining binding of `CNC(=O)C1CCN(c2cc(C)c(F)cc2NC(=O)c2ccc(-c3cc(O)ccc3C)c(C)c2)CC1` is reported as 79% (binding, competition with immobilised ligand; 1 µM).
With `O=C(Nc1ccc(F)c(C(=O)Nc2ccc3[nH]ncc3c2)c1)Nc1cc(C(F)(F)F)ccc1F` the inhibition was 11.1% (enzyme activity, inhibitor, FRET; 1 µM).
The remaining binding of `Nc1ncc2c(n1)-c1c([nH]c3ccc(C4=CCOCC4)cc13)CCC2` is reported as 97% (binding, competition with immobilised ligand; 1 µM).
`Cc1cccc(O[C@H]2CCC[C@@H](C(C)CNCc3ccncc3)C2)c1` (relative stereo) gave an inhibition of -8% (cell-free assay; 10 µM).
For `O=C(Nc1ccc(C(=O)Nc2ccc3[nH]ncc3c2)c(F)c1)Nc1cc(C(F)(F)F)ccc1F`, the inhibition was 13.7% (enzyme activity, inhibitor, FRET; 1 µM).
With `CCN1CCN(Cc2ccc(NC(=O)c3ccc(C)c(NC(=O)c4cncc(-c5cccs5)c4)c3)cc2C(F)(F)F)CC1` the remaining binding was 20% (binding, competition with immobilised ligand; 1 µM).
`Cc1cc(C(=O)Nc2ccc3[nH]ncc3c2)ccc1NC(=O)Nc1cc(C(F)(F)F)ccc1F` gave an inhibition of 17.9% (enzyme activity, inhibitor, FRET; 1 µM).
The remaining binding of `COc1cc(Nc2nc(C)cc(-c3cnn4nc(OC)ccc34)n2)cc(C(F)(F)F)c1` is reported as 84% (binding, competition with immobilised ligand; 1 µM).
`C=CC(=O)N1CCc2ccc(-n3c(=O)ccc4cnc5ccc(-c6cnn(C)c6)cc5c43)cc21` gave a remaining binding of 100% (KINOMEscan; 1 µM; baseline: DMSO control).
The remaining binding of `Cc1cnc2nc1Nc1cccc(c1)COC/C=C/COCc1cc(ccc1OCCN1CCOCC1)N2` is reported as 75% (binding, competition with immobilised ligand; 0.1 µM).
With `O=C(Nc1ccc(C(=O)Nc2ccc3[nH]ncc3c2)c(Cl)c1)Nc1cc(C(F)(F)F)ccc1F` the inhibition was 25.8% (enzyme activity, inhibitor, FRET; 1 µM).
`C=CC(=O)N1CCCC(n2c(=O)c3ncccc3n(Cc3ccc(Oc4ccccc4)cc3)c2=O)C1` (stereo not drawn) has a remaining binding of 67% (cell-free assay, competition with immobilised ligand; 1 µM).
For `O=C(Cc1ccc(OCc2ccccc2)cc1)NC1(C(=O)O)CCN(C(=O)c2ccc(-c3cccc(Cl)c3)cc2)CC1`, “activity vs control” read 81% (enzyme activity, inhibitor; 10 µM).

For quick reference, copied from above:
With `C=CC(=O)Nc1cccc(-c2cnc3[nH]cc(C(=O)NC(C)(C)C)c3n2)c1` the inhibition was -9% (enzyme activity, inhibitor; 0.1 µM).
